Results pooled from the literature.
Numbered parts are unrelated; each lists some results of a single study. Changes are numbered by the printed parent chain.

Study 1
Target: Sal-like protein 4, full length isoform A (SALL4, Homo sapiens, UniProt Q9UJQ4, residues 1-1053)
UniProt Q9UJQ4, sequence (whole entry, looked up): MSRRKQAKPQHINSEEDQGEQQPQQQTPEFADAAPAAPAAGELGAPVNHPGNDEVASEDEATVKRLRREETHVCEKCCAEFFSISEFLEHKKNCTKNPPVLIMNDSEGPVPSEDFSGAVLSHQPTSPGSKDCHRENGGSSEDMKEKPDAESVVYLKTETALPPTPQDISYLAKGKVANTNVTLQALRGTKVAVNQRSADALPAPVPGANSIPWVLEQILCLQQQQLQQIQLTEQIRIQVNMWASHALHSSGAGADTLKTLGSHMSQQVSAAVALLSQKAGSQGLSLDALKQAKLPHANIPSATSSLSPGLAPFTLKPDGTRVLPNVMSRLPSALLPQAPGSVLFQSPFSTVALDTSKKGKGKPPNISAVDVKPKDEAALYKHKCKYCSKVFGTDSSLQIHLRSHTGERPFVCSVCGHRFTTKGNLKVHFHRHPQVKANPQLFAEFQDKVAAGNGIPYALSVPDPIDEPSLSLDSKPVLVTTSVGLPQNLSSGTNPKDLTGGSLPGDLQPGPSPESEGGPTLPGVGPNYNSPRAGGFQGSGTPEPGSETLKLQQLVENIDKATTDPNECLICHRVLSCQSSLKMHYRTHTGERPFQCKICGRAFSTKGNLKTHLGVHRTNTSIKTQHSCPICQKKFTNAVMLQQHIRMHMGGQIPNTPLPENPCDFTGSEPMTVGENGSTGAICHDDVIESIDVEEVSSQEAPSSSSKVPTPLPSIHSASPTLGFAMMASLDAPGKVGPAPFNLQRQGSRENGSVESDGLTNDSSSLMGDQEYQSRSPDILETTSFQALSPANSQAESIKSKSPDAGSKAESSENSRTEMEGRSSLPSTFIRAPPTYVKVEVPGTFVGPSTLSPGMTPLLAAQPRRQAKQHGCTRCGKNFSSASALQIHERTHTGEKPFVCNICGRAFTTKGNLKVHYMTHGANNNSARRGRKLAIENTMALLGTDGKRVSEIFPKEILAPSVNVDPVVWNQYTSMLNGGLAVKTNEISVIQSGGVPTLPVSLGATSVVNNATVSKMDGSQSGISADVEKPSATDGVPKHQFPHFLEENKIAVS
Technique: universal PBM
Form: double-stranded DNA, one strand shown
Sample: in vitro
Tested at: 600 nM
Notes: 8-mer, flanks averaged, mean of replicates
Reading: higher = stronger binding
Endpoint: E-score
AATCGTCC: -0.00181
ATTACGCA: 0.223
GAGAGGTA: -0.218
CTGCTCTC: -0.0629
GGCTGCGA: -0.065
TCCCTCCA: -0.213
AGAACTGA: 0.0482
TAGTTGGA: 0.131
AATAAGGT: 0.157
GTAGTAGA: 0.126
TCGCTTCA: 0.0325
TACAACTA: 0.0976
CCTTGCCA: 0.0601
ACAGAGTG: 0.0409
CGTGCGCA: -0.225
AAAGTATT: 0.325
CCAAACCA: -0.0533
GGCTTCCC: -0.212
CAAAATTA: 0.363
AGGATTAG: 0.0643
CATTGTCA: 0.131
CGCTGACC: -0.243

Study 2
Target: CCNF, cyclin fold, Cln2 fusion (human)
Technique: yeast growth competition, sequencing
Sample: yeast
Notes: strong parent motif
Baseline: not given
Reading: higher = stronger binding
Endpoint: normalised enrichment score
Parent: CENPC docking peptide (human); VKTKKRLNFDDKV
VKTKKRLNFDAKV [D11A]: 5.07
VATKKRLNFDDKV [K2A]: 4.64
AKTKKRLNFDDKV [V1A]: 4.78
VKTKARLNFDDKV [K5A]: 0.426
VKTKRRLNFDDKV [K5R]: 8.34
VKTKRRLNLDDKV [K5R F9L]: 5.36
VKTAKRLNFDDKV [K4A]: 5.5
VKTKARANFDDKV [K5A L7A]: 0.416
VKTKKRLNFDDAV [K12A]: 6.66
VKTKKRLNADDKV [F9A]: 0.986

Study 3
Target: Histone acetyltransferase KAT6A, both winged helices, GST fusion (KAT6A, Homo sapiens, UniProt Q92794, residues 1-181)
Technique: protein binding microarray
Form: double-stranded DNA, one strand shown
Sample: in vitro
Tested at: not given
Notes: 8-mer, flanks averaged, mean of 2 arrays, mostly near background
Baseline: not given
Reading: higher = stronger binding
Endpoint: E-score
Target sequence (chain): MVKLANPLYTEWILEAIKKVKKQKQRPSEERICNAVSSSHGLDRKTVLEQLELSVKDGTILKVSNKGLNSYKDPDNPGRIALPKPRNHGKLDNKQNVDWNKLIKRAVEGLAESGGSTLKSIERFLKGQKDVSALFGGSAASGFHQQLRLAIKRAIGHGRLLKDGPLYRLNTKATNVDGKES
GGACGTCA: -0.0751
AACGGCGT: 0.247
ATTCCTCA: -0.0762
GACCTAGC: -0.0536
TACAGGTA: -0.0666
AAGCCCTT: -0.181
TTCTTCAA: -0.145
CTCCTTAA: -0.0871
ACCATAAC: -0.0168
GCTTATGA: -0.00741
TAGTTAAA: 0.0752
ACGCGACA: 0.258
CCGCCCCG: 0.269
CTCACAGC: -0.0595
AAATTCAT: -0.088
CTGTGCCC: 0.015
CACATAGC: 0.0595
CAGCGGGG: 0.173
GCGTCTCC: 0.278
GAGGACGC: 0.145
CTGATCAC: -0.0895
AACCAATC: -0.151

Study 4
Target: Ras GTPase-activating protein-binding protein 1, RRM domain (G3BP1, Homo sapiens, UniProt Q13283)
UniProt Q13283, sequence (whole entry, looked up): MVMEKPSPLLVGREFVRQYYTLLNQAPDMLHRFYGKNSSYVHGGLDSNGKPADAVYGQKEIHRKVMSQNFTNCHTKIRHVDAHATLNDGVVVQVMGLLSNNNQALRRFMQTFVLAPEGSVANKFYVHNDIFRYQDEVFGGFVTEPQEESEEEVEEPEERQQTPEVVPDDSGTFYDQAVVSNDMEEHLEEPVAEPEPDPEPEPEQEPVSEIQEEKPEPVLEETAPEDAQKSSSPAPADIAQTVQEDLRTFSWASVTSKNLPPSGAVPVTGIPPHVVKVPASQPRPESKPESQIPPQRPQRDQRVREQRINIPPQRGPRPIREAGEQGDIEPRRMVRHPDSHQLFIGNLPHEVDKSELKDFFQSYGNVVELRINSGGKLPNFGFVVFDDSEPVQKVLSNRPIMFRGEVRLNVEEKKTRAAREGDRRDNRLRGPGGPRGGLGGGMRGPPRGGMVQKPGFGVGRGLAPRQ
Technique: RNA Bind-n-Seq
Form: RNA
Sample: in vitro
Tested at: 1 µM
Notes: whole 134-nt RNA, ends assumed
Added: 150 mM KCl
Baseline: input library
Reading: higher = stronger binding
Endpoint: log2 enrichment
Constant ends, left off below: GGGAGUUCUACAGUCCGACGAUC … UGGAAUUCUCGGGUGUCAAGG
UGGGAGGUGCAUUUUGUUUAUUUUUUUAGCUCAUUUCCAGGGGUGGGAAUUUUUUUUUAAUAUGUGUCAUGAAUAAAGUUGUUUUUGAAA: 1.4
UCAAGUCCUGUGCUACACAUCGUAUGUACCGAAUCGGGGAAGGGAAGGGGAAGGAAAGUAUUAUGUUACGCCGUUCGGAUCUGCACUUCC: -0.111
UCAAGUCCUGUGCUACACAUCGUAUGUACCGAAUCGGGUUUGGUUUGGUUUGGGGAAAGUAUUAUGUUACGCCGUUCGGAUCUGCACUUC: -0.312
CUGUGCUACACAUCGUAUGUACCGAAUCGGAAAAAAAGGAAAAAAAGGGGAAAAAAAGGGGAAAGUAUUAUGUUACGCCGUUCGGAUCUG: 0.0634
CAAGUCCUGUGCUACACAUCGUAUGUACCGAAUCGGAGGAAAAAGGUUUUUUUGGAAAGUAUUAUGUUACGCCGUUCGGAUCUGCACUUC: -0.172
UUCCUCAAGUCCUGUGCUACACAUCGUAUGUACCGAAUCGGAGGAGGAGGAAAGUAUUAUGUUACGCCGUUCGGAUCUGCACUUCCAGCA: -0.358
AGUCCUGUGCUACACAUCGUAUGUACCGAAUCGGGGCCCCGGGGCCCCGGGCCCCGGAAAGUAUUAUGUUACGCCGUUCGGAUCUGCACU: 0.98
ACCAUGCAGGUGGGCAUCUUUGGGAAGUGGGGCAAGGGGGGGAUAGGGAGGGGGGUAACACUUAAAGAACAGGUGGUCCCAGGUCGUUUC: -0.421
UCCUGUGCUACACAUCGUAUGUACCGAAUCGGGAAAAAAAGGGUUUUUGGGAAAAAGGGAAAGUAUUAUGUUACGCCGUUCGGAUCUGCA: 0.0584

Repeated from above (study 3):
CCGCCCCG: 0.269
CTCACAGC: -0.0595
AAATTCAT: -0.088
CTGTGCCC: 0.015
CACATAGC: 0.0595
CAGCGGGG: 0.173
GCGTCTCC: 0.278
GAGGACGC: 0.145
CTGATCAC: -0.0895
AACCAATC: -0.151
